Measured values of several laboratories.
A part holds a random share of what one study measured.

Sample 1
Target: Interferon regulatory factor 3, full length, phosphomimetic (IRF3, Homo sapiens, UniProt Q14653, residues 1-427, S386D/S396D/S398D/S402D/T404D/S405D)
Method: protein-binding microarray
Molecule type: double-stranded DNA, one strand shown
Matrix: in vitro
Concentration: 2540 nM top
Setting: 60-bp whole probe
Added: salmon DNA 0.4 mg/ml
Relative to: random background probes
Reading: higher = stronger binding
Target sequence (chain): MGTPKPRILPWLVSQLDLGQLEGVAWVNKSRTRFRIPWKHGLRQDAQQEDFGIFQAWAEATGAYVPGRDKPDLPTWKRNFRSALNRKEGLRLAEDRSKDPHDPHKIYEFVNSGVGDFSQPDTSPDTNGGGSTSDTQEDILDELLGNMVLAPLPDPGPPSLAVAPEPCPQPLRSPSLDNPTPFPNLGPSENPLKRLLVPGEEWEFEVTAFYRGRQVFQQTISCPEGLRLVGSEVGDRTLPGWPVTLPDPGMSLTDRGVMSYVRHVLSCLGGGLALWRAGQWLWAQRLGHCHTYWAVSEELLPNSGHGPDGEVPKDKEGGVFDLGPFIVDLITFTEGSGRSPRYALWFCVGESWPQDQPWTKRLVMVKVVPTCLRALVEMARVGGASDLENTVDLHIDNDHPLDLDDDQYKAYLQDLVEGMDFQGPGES
`GCCTAGCACTTAGGACGGGGTTTCGGTTAGTGCTAGGTCTTGATTCGCTTGACGCTGCTG` — result for “fitted relative affinity”: 3.13 z-score.
For `GCCTAGCACTTACATTTATATCTTTGCTTGTGCTAGGTCTTGATTCGCTTGACGCTGCTG`, “fitted relative affinity” read 0.725 z-score.
`GCCTAGCACTTAGGTTTCCGTTTCGGTTAGTGCTAGGTCTTGATTCGCTTGACGCTGCTG` — result for “fitted relative affinity”: 10.6 z-score.
`GCCTAGCACTCATATTAAAATTTAATACTGTGCTAGGTCTTGATTCGCTTGACGCTGCTG` — result for “fitted relative affinity”: 0.751 z-score.

Sample 2
Target: TAR DNA-binding protein 43, full length, His tag (TARDBP, Homo sapiens, UniProt Q13148, residues 1-414)
Method: RNA Bind-n-Seq
Molecule type: RNA
Matrix: in vitro
Concentration: 20 nM
Setting: 6-mer, flanks averaged, single round
Added: 150 mM LiCl
Relative to: input library
Reading: higher = stronger binding
For `GGUCAA`, “6-mer enrichment (R)” read 0.882.
`ACGCAC`: “6-mer enrichment (R)” 0.858.
`UAUCAC` — result for “6-mer enrichment (R)”: 0.853.
`CGGUAA` — result for “6-mer enrichment (R)”: 0.902.

Sample 3
Target: Sal-like protein 4, full length isoform B (SALL4, Homo sapiens, UniProt Q9UJQ4-2, residues 1-616)
Method: universal PBM
Molecule type: double-stranded DNA, one strand shown
Matrix: in vitro
Concentration: not given
Setting: 8-mer, flanks averaged, mean of replicates
Reading: higher = stronger binding
Target sequence (chain): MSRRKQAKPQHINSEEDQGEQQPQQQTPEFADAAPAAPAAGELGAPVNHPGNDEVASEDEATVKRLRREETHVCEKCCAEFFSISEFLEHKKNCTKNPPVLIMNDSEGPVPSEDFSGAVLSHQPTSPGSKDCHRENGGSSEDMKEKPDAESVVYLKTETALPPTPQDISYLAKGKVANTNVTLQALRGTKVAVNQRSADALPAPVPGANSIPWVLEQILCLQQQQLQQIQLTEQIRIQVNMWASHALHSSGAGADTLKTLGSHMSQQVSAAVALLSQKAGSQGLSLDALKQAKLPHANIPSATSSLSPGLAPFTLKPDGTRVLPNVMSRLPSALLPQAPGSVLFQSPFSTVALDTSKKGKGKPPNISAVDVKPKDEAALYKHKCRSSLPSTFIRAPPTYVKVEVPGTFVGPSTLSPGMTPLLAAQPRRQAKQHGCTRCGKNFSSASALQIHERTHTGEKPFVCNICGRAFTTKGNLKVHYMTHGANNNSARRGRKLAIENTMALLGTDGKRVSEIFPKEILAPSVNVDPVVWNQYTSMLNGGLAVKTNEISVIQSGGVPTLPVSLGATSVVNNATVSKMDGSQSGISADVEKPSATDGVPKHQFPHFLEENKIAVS
With `AACAACCT` the E-score was -0.013.
The E-score of `TGCTAAAA` is reported as 0.0882.
For `GAGCGACC`, the E-score was -0.2.
`CGCTCGGA` gave an E-score of -0.153.
`CACCTATC` gave an E-score of 0.0486.
`CTGGTCTA` gave an E-score of -0.107.
`GGTGAACC` has an E-score of -0.217.

Further values, each from its own experiment
The fold induction of `PhoQ, residues 284 288 289 292 302 303 ASSHFY` is reported as 10.3 (PhoP, residues 12 14 15 18 19 NMSFL (Escherichia coli, UniProt P23836); Sort-seq, measured: YFP reporter; E. coli; PhoQ-PhoP variant library, added: 10 µM Mg2+; relative to: high Mg2+ state, higher = stronger signaling).

A few entries again (sample 3):
The E-score of `TGCTAAAA` is reported as 0.0882.
For `GAGCGACC`, the E-score was -0.2.
